Measurements pooled from the literature.
Each line is one published result; not all experiments were run side by side. Values joined by “and” are separate records of one study, mostly repeats; a detail may differ. ± marks the error that the study gave.

| SMILES | target or system | assay | system | setting | how to read | quantity | value |
| --- | --- | --- | --- | --- | --- | --- | --- |
| C=CC[C@@H]1c2ccc(OC)c(OC)c2CN2CCc3cc4c(cc3[C@H]12)OCO4 | HEK293 transfected | ATP-evoked current, whole-cell patch clamp |  | 30 µM, mutant K297R |  | normalised current | 0.468 and 0.603 and 0.517 |
| CCn1cc(-c2cc(Cn3ccnc3)cc3c2CCN([C@H](c2cc(OC)ccn2)C2CC2)C3=O)c(C(F)(F)F)n1 | KURAMOCHI | cell growth, inhibitor |  | 120 h |  | EC50 | 9970 nM |
| COc1ccc(-n2nc(C(C)=O)s/c2=N\N=C(/C)c2ccc(NC(=O)c3ccc(C)cc3)cc2)cc1 | HepG2 |  |  | 2.5 µM |  | toxicity | 88.1% |
| COc1ccc([C@H]2N(c3ccc(Cl)c(Cl)c3)C(=O)[C@@H]3CCCN32)c(OC)c1OC (racemic) | PC-12 |  |  | 50 µM, 2 days |  | mutant huntingtin protein level | no effect |
| Cc1cc(Nc2ncc(Cl)c(Nc3ccccc3S(=O)(=O)C(C)C)n2)c(OC(C)C)cc1C1CCNCC1 | CLB-GE | phosphoproteomics LC-MS/MS, refers to: NEK9 phosphorylation |  | 200 nM, 60 min | reference: untreated | log2 fold change | -1.67 |
| C/C=C/C/C=C/CCC(=O)[C@H]1O[C@H]1C(N)=O | MDA-MB-231, BAX/BAK siRNA knockdown | cell viability, CellTiter-Glo |  |  | direction not given | Z score | -1.1 |
| CC(C)Cn1cnc2c(N)nc3ccccc3c21 | THP-1-derived macrophages | induction, ELISA |  | 10 µg/mL, 24 h | reference: untreated | IL-6 level | 44 fold |
| Cn1cc(Nc2nccc(-c3ccc4c(c3)CN(C3COC3)CC[C@H]4NC(=O)c3cn(C(C)(C)C)nn3)n2)cn1 | mouse splenic B cells | refers to: Glioma signalling |  | 30 mg/kg, IgD-activated in vivo | reference: vehicle, direction not given | pathway activation z-score | 3 |
| CCn1cc(-c2cc(Cn3ccoc3=N)cc3c2CCN([C@@H](C)c2cc(OC)ccn2)C3=O)c(C(F)(F)F)n1 | 22Rv1 | cell growth, inhibitor |  | 120 h |  | EC50 | 63 nM |
| CC(C)(C)c1cnc(CSc2cnc(NC(=O)C3CCNCC3)s2)o1 | SNU-1040 |  |  | 0.33 µM, 72 h, 100% DMSO | reference: vehicle | cell growth | 90% |
| COc1c(C)c(OS(=O)(=O)c2ccc3ccccc3c2)c(C)c(O)c1C(=O)/C=C/c1ccccc1 | KKU-M213 | SRB |  |  | reference: normal over KKU-M213 IC50 | selectivity index | 1.09 |
| CCCCCN1C[C@H](O)[C@@H](O)[C@H](O)[C@@H]1CO | Sandhoff disease patient fibroblasts | glycosphingolipid lowering, LC-MS/MS, refers to: HexCer d18:0/22:0 |  |  |  | IC50 | 559 nM |
| COc1cnc2cccc(N3CCc4c(cc(Cn5ccnc5C)cc4-c4cn(C)nc4C(F)(F)F)C3=O)c2c1 | PLC-PRF-5 | cell growth, inhibitor |  | 120 h |  | EC50 | > 30000 nM |
| Cn1c(Nc2nc3ccc(C(F)(F)F)cc3s2)nc2cc(C(=O)NCCOCCO)ccc21 | SH-SY5Y | RNA-seq, refers to: CCN1 mRNA |  | 5 µM, 5 h | reference: untreated cells | fold change | 3.21 |
| O=C(/C=C/C=C/C=C/C1CCCCC1)NC1=C[C@@](O)(/C=C/C=C/C=C/C(=O)NC2=C(O)CCC2=O)[C@@H]2O[C@@H]2C1=O | CAL-27 | cell growth, CellTiter-Glo |  | 78 h |  | GI50 | 17600 nM |
| C[C@H]1[C@@H](O)O[C@@H]2O[C@@]3(C)CC[C@H]4[C@H](C)CC[C@@H]1[C@@]24OO3 | KCL-22 | annexin V/PI flow cytometry, refers to: annexin V-/PI- |  | 3.2 µM, 24 h |  | viable cells | 90% |
| CCCCN1C[C@H](O)[C@@H](O)[C@@H](O)[C@H]1CO | sample D patient fibroblasts | acidic compartment staining, LysoTracker Red imaging |  | 216 h |  | IC50 | 1400 nM |
| Nc1ncnc2nc(-c3ccc(N4CCOCC4)nc3)cc(-c3cccc(Br)c3)c12 | activated human T cells |  | human | 3.16 nM |  | T cell proliferation | 1.9% and 0.7% and 0% |
| O=C1NC(=O)/C(=C/c2ccc3nccc(-c4ccncc4)c3c2)S1 | SNU-1040 |  |  | 0.33 µM, 72 h, 100% DMSO | reference: vehicle | cell growth | 91% |
| Nc1ccccc1NC(=O)c1ccc(CNC(=O)OCc2cccnc2)cc1 | A2780cisR | flow cytometry, refers to: subG1 nuclei |  | concentration not given |  | apoptotic cells | ~60% |
| CC/C(=N\NC(=O)NCc1cccc(O)c1)c1ccc(O)c(C)c1O | SK-OV-3 | Western blot, refers to: LATS |  | 10 µM, 6 h, 3D gellan gum culture, unit not given | reference: β-actin | protein level | 0.65 ± 0.52 |
| Nc1ncnc2c1ncn2[C@@H]1O[C@H](CO)[C@@H](O)[C@H]1O | activated human T cells |  |  | 50 µM, unit not given | reference: DMSO | carbamoyl aspartate level | 7.1 and 7.9 and 8.7 and 9 and 7.4 |
| NC1(c2ccc(-c3nc4ccn5c(=O)[nH]nc5c4cc3-c3ccccc3)cc2)CCC1 | T47D compound-resistant | cell viability |  | 72 h | reference: EC50 resistant over wild-type T47D | resistance fold | 5.3 |
| CC(C)NCC(O)c1ccc(O)c(O)c1 (centres unmarked) | 3T3-L1 mature adipocytes | lipolysis, Oil Red O staining |  | IC20 |  | mean lipid content | 0.678 OD492 |

| SMILES | target or system | assay | system | setting | how to read | quantity | value |
| --- | --- | --- | --- | --- | --- | --- | --- |
| CCCCCC/C=C1\C=C(C(F)(F)F)c2cc3c(cc21)OCCO3 | MM1.S bortezomib-resistant | Western blot |  | 0.5 µM, 8 h |  | Nrf2 stabilization | no effect |
| O=C(NCCc1cccnc1)c1ccc([C@H]2[C@@H](F)[C@@H](F)C[C@@H](F)[C@H]2F)cc1 |  | hepatocyte stability | cryopreserved mouse hepatocytes | 1 µM |  | hepatic clearance | 55 mL/min/kg |
| O=C(C[C@@H](C(F)F)n1ccc(F)n1)N1CCC(O)(Cn2cnc3c(cnn3-c3ccc(F)cc3)c2=O)CC1 | CHP-212 parental (wild-type USP7) | annexin V-PI flow cytometry |  | 0.3 µM, 48 h |  | early apoptotic cells (annexin V+/PI-) | 14.6% and 16.5% and 17% |
| CCCCCCCCCCCCCCCCCCOc1cccc(CC(=O)OCC[N+]2(C)CCCC2)c1 | NSCLC panel (nine cell lines) |  |  | 10 µM |  | mean growth inhibition | 16.9% |
| O=C(NCCc1cccnc1)c1ccc(C2CCCCC2)cc1 |  | hepatocyte stability | cryopreserved rat hepatocytes | 1 µM |  | hepatic clearance | 47 mL/min/kg |
| COc1ccc(-n2nc(C(C)=O)s/c2=N\N=C(/C)c2ccc(NC(=O)c3ccc(Cl)cc3)cc2)cc1 | MCF7 |  |  | 1.25 µM |  | viability | 8.8% |
| Clc1nc(NCc2ccco2)c2[nH]cnc2n1 | iPSC-derived cardiomyocytes | RNA-seq, refers to: ASPG chr14 exon ending 104111601 |  | unit not given | reference: DMSO minus compound | ΔPSI | -0.294 |
| CCc1cnc(N2CCC(c3nc(COc4ccc(-n5cnnn5)cc4)cs3)CC2)nc1 | HEK-293T | RNA-seq GSEA, refers to: HALLMARK_ESTROGEN_RESPONSE_EARLY |  | concentration not given | direction not given | normalized enrichment score | 0.964 |
| Cc1nc(Nc2ncc(C(=O)Nc3c(C)cccc3Cl)s2)cc(N2CC[C@H](O)C2)n1 | PEER | cell proliferation, CellTiter-Glo |  | 10 µM, 72 h |  | inhibition | 24% |
| Cc1ccc(CNC(=O)Cn2cc(CSc3nc4ccccc4[nH]3)nn2)cc1 | HEK293 | MTT |  | 31.3 ppm |  | cytotoxicity | 82.8% |
| O=c1ccn([C@@H]2O[C@H](CO)[C@@H](O)[C@H]2O)c(=O)[nH]1 | activated human T cells |  | human | 3.16 µM |  | T cell proliferation | 101% and 100% and 87.5% and 93.9% and 88% |
| O=c1[nH]nc(OCCCc2ccc(Cl)cc2)c(NCc2cccnc2)c1Br | HEK293T | RNA-seq, refers to: PON2 mRNA |  | 10 µM, 6 h | reference: vehicle | log2 fold change | -0.0979 |
| Cn1cc(-c2ccc(-c3cncc(Cl)c3N3CCC4(CCNC4=O)CC3)cc2)cn1 | COLO 205 | gene expression, microarray, refers to: CCR7 mRNA |  | concentration not given, 6 h | reference: untreated cells | log2 fold change | -2 |
| C[C@H](Nc1ccc2c(c1)OCCn1cc(N3C(=O)OC[C@H]3C(F)F)nc1-2)C(N)=O | SNU-1076 | cell growth, CellTiter-Glo |  | 120 h |  | EC50 | 2190 nM |
| COc1ccc(N)cc1-c1c[nH]c2ncc(-c3cncc(C(=O)N(C)C)c3)cc12 | Ba/F3 BCR-ABL wild type | cell proliferation |  | 72 h |  | GI50 | 218 ± 30.3 nM |
| Nc1cccc2c1C(=O)N(C1CCC(=O)NC1=O)C2=O (centres unmarked) | MM1.S resistant to compound | XTT |  | 0.4 µM |  | viability | 85% and 114% and 93% |
| C=CCOc1c(C)c(O)c(C(=O)/C=C/c2ccccc2)c(OC)c1C | KKU-M213 | SRB |  |  | reference: normal over KKU-M213 IC50 | selectivity index | 1.01 |
| Cc1nn(-c2nc3c(F)cc(F)cc3s2)c(O)c1C(c1ccc(C(F)(F)F)cc1)c1c(C)nn(-c2nc3c(F)cc(F)cc3s2)c1O | THP1-Dual | IRF3 phosphorylation, inhibitor, Western blot densitometry |  | 20 µM, added: HT-DNA |  | phospho-IRF3/IRF3 ratio | 0.429 and 0.729 and 0.532 |
| CCCCCCCCCCCCCCCCCCOc1cccc(CC(=O)OCC[N+](CC)(CC)CC)c1 | NSCLC panel (nine cell lines) |  |  | 10 µM |  | mean growth inhibition | 40.3% |
| COc1c(C)c(OC(C)=O)c(C)c(OC(C)=O)c1C(=O)/C=C/c1ccccc1 | SH-SY5Y | SRB |  |  | reference: normal over SH-SY5Y IC50 | selectivity index | 1.46 |
| COc1cc(/C=C/C(=O)N2CCC=CC2=O)cc(OC)c1OC | MDA-MB-468 | qRT-PCR, refers to: GSS |  | 30 µM, 6 h | reference: time zero | mRNA level | 117 ± 11.3% |
| CCCCCCCCCCCCCCCCCCOc1ccc(CC(=O)OCC[N+]2(C)CCCCC2)cc1 | NSCLC panel (nine cell lines) |  |  | 10 µM |  | mean growth inhibition | 7.19% |
| CC(C)NCC(O)c1ccc(O)c(O)c1 (centres unmarked) | mouse ventricular cardiomyocytes |  |  | dose not given, 0.283 s |  | sarcomere length | 1.8 µm |

Some of these lines once more:
| SMILES | target or system | assay | system | setting | how to read | quantity | value |
| --- | --- | --- | --- | --- | --- | --- | --- |
| CCCCCC/C=C1\C=C(C(F)(F)F)c2cc3c(cc21)OCCO3 | MM1.S bortezomib-resistant | Western blot |  | 0.5 µM, 8 h |  | Nrf2 stabilization | no effect |
| O=C(NCCc1cccnc1)c1ccc([C@H]2[C@@H](F)[C@@H](F)C[C@@H](F)[C@H]2F)cc1 |  | hepatocyte stability | cryopreserved mouse hepatocytes | 1 µM |  | hepatic clearance | 55 mL/min/kg |
| O=C(C[C@@H](C(F)F)n1ccc(F)n1)N1CCC(O)(Cn2cnc3c(cnn3-c3ccc(F)cc3)c2=O)CC1 | CHP-212 parental (wild-type USP7) | annexin V-PI flow cytometry |  | 0.3 µM, 48 h |  | early apoptotic cells (annexin V+/PI-) | 14.6% and 16.5% and 17% |
